# Results pooled from the literature.
# Parts stem from different laboratories: compare values within a part only.
# Chain of UniProt P07949 (whole entry, unmodified, looked up): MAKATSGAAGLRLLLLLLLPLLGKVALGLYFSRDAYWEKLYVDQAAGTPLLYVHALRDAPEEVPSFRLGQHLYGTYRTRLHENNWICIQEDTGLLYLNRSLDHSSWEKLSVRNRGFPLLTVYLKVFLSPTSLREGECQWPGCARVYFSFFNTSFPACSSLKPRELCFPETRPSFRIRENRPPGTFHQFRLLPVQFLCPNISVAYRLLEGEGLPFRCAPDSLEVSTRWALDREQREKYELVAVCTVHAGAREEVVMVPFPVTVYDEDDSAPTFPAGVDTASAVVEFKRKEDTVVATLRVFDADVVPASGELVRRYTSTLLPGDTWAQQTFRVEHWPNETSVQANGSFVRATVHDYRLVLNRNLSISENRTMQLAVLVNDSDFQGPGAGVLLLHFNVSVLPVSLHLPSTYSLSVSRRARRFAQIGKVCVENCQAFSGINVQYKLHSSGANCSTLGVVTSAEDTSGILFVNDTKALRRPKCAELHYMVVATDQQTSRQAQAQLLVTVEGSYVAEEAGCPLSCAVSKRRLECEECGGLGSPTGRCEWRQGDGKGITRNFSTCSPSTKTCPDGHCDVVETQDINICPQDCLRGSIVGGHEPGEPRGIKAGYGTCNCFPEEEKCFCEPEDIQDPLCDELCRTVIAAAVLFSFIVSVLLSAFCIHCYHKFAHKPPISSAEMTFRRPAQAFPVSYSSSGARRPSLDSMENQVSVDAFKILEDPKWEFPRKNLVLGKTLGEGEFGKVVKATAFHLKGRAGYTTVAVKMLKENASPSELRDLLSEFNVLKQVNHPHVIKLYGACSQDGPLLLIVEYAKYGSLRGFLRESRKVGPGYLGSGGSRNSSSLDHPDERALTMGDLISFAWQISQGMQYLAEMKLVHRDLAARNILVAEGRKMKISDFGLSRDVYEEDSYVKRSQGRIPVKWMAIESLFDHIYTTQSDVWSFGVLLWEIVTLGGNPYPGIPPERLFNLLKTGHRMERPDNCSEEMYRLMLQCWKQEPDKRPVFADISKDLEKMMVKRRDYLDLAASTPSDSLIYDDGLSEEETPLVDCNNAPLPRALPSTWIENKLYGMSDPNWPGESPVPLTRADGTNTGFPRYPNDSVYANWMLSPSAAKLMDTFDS

# Study 1
# Target: Inhibitor of nuclear factor kappa-B kinase subunit alpha (CHUK, Homo sapiens, UniProt O15111)
# Observed: enzyme activity
# Mode: inhibitor
# Tested at: 0.5 µM
# Baseline: control
# Residues (O15111 1-745): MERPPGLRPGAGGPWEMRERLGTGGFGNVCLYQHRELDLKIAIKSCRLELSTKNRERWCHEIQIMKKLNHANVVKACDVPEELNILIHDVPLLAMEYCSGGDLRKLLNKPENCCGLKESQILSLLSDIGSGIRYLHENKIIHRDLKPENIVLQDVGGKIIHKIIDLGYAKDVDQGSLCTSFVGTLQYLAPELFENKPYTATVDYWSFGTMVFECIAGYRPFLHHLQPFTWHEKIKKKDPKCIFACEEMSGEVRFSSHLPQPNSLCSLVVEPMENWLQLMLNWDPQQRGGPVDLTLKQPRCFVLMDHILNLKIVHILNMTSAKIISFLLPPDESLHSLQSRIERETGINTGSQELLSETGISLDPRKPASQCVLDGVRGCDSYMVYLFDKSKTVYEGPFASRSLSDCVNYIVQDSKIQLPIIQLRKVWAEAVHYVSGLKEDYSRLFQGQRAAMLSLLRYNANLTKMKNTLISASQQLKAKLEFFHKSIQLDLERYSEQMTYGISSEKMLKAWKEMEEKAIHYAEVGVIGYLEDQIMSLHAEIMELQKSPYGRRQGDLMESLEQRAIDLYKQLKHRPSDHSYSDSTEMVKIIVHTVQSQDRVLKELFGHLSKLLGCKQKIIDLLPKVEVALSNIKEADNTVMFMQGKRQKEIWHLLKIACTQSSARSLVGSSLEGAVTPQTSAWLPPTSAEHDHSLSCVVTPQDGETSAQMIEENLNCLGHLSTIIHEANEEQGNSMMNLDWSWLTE
Structure (SMILES),remaining activity [%]
Nc1nc(Nc2ccc(S(N)(=O)=O)cc2)nn1C(=S)Nc1c(F)cccc1F,54.4
O=Nc1c(-c2c(O)[nH]c3ccccc23)[nH]c2ccccc12,97.6
CCCCc1c(-c2ccc(O)cc2)[nH]c2nccnc12,77.6
CC(C)N(CCC(=O)c1ccc2ccccc2c1)Cc1ccccc1,96.4
NC(=O)c1ccc(-c2nc(-c3ccc4c(c3)OCCO4)c(-c3ccccn3)[nH]2)cc1,89.7
FC(F)(F)c1ccc(/C=C/c2nc(COc3ccc(CCCCn4ccnn4)cc3)co2)cc1,96.8
CCN(CC)CCCCN1c2ccccc2Oc2ccc(Cl)cc21,98.8
NC(=O)c1cccc(-c2cc(Nc3ccc(OC(F)(F)F)cc3)ncn2)c1,95
c1cc(-c2cnn3cc(-c4ccc(OCCN5CCCCC5)cc4)cnc23)ccn1,104
O=C(c1ccccc1)c1ccc(N2CCOCC2)cc1O,101
O=C1NC(=O)/C(=C/c2ccc3c(c2)OC(F)(F)O3)S1,88.4
CNc1cc2c(Nc3cccc(Br)c3)ncnc2cn1,99
C[C@@H](N)[C@H]1CC[C@H](C(=O)Nc2ccncc2)CC1,92.2
COc1cc2c(Nc3ccc(Br)cc3F)ncnc2cc1OCC1CCN(C)CC1,96.6
O=c1c(-c2ccc(F)cc2)c(-c2ccncc2)[nH]n1-c1ccc(Cl)cc1,101
COc1cc2c(N3CCN(C(=O)Nc4ccc(OC(C)C)cc4)CC3)ncnc2cc1OCCCN1CCCCC1,98.3
N#CC(c1ccnc(NCCc2cccnc2)n1)c1nc2ccccc2s1 (stereo not drawn),88.6
O=C1c2ccccc2-c2nc3nnnn3nc21,72
CC(C)n1cnc2c(Nc3cccc(Cl)c3)nc(NCCO)nc21,96.1
CC(C)(C)c1nc2c3cc[nH]c(=O)c3c3cc(F)ccc3c2[nH]1,102
N#C/C(=C(/N)SC1C=CC=CC1)c1cccc(C(O)c2ccncc2)c1 (stereo not drawn),105
O=C(O)/C=C/c1cc(Br)c(Br)c(Br)c1Br,89.5
Clc1ccc(Nc2nnc(Cc3ccncc3)c3ccccc23)cc1,104

# Study 2
# Compound: CO[C@H]1CC[C@H](CNc2ccc(S(=O)(=O)NC(=O)c3ccc(N4CCN(CC5=C(c6ccc(Cl)cc6)CC(C)(C)CC5)CC4)cc3Oc3cnc4[nH]ccc4c3)cc2[N+](=O)[O-])CC1
# Observed: cell-free assay
# Technique: competition with immobilised ligand
# Tested at: 1 µM
target,remaining binding
"Receptor tyrosine-protein kinase erbB-2 (ERBB2, Homo sapiens, UniProt P04626)",54%
"Serine/threonine-protein kinase 33 (STK33, Homo sapiens, UniProt Q9BYT3)",100%
"Cyclin-dependent kinase 16 (CDK16, Homo sapiens, UniProt Q00536)",61%
"TGF-beta receptor type-2 (TGFBR2, Homo sapiens, UniProt P37173)",74%
"Cyclin-dependent kinase 4, with cyclin D1 (CDK4, Homo sapiens, UniProt P11802)",100%
"Mitogen-activated protein kinase 12 (MAPK12, Homo sapiens, UniProt P53778)",47%
"RAC-gamma serine/threonine-protein kinase (AKT3, Homo sapiens, UniProt Q9Y243)",100%
"Proto-oncogene tyrosine-protein kinase receptor Ret (RET, Homo sapiens, UniProt P07949, V804L)",88%
"Peripheral plasma membrane protein CASK (CASK, Homo sapiens, UniProt O14936)",100%
"Tyrosine-protein kinase Lck (LCK, Homo sapiens, UniProt P06239)",73%
"Interleukin-1 receptor-associated kinase 4 (IRAK4, Homo sapiens, UniProt Q9NWZ3)",83%
"Ribosomal protein S6 kinase alpha-5, N-terminal kinase domain (RPS6KA5, Homo sapiens, UniProt O75582)",65%
"Interleukin-1 receptor-associated kinase 1 (IRAK1, Homo sapiens, UniProt P51617)",96%
"Ribosomal protein S6 kinase beta-1 (RPS6KB1, Homo sapiens, UniProt P23443)",86%
"High affinity nerve growth factor receptor (NTRK1, Homo sapiens, UniProt P04629)",100%

# Study 3
# Target: DNA polymerase theta, ATPase domain (POLQ, Homo sapiens, UniProt O75417)
# Chain of UniProt O75417 (whole entry, unmodified, looked up): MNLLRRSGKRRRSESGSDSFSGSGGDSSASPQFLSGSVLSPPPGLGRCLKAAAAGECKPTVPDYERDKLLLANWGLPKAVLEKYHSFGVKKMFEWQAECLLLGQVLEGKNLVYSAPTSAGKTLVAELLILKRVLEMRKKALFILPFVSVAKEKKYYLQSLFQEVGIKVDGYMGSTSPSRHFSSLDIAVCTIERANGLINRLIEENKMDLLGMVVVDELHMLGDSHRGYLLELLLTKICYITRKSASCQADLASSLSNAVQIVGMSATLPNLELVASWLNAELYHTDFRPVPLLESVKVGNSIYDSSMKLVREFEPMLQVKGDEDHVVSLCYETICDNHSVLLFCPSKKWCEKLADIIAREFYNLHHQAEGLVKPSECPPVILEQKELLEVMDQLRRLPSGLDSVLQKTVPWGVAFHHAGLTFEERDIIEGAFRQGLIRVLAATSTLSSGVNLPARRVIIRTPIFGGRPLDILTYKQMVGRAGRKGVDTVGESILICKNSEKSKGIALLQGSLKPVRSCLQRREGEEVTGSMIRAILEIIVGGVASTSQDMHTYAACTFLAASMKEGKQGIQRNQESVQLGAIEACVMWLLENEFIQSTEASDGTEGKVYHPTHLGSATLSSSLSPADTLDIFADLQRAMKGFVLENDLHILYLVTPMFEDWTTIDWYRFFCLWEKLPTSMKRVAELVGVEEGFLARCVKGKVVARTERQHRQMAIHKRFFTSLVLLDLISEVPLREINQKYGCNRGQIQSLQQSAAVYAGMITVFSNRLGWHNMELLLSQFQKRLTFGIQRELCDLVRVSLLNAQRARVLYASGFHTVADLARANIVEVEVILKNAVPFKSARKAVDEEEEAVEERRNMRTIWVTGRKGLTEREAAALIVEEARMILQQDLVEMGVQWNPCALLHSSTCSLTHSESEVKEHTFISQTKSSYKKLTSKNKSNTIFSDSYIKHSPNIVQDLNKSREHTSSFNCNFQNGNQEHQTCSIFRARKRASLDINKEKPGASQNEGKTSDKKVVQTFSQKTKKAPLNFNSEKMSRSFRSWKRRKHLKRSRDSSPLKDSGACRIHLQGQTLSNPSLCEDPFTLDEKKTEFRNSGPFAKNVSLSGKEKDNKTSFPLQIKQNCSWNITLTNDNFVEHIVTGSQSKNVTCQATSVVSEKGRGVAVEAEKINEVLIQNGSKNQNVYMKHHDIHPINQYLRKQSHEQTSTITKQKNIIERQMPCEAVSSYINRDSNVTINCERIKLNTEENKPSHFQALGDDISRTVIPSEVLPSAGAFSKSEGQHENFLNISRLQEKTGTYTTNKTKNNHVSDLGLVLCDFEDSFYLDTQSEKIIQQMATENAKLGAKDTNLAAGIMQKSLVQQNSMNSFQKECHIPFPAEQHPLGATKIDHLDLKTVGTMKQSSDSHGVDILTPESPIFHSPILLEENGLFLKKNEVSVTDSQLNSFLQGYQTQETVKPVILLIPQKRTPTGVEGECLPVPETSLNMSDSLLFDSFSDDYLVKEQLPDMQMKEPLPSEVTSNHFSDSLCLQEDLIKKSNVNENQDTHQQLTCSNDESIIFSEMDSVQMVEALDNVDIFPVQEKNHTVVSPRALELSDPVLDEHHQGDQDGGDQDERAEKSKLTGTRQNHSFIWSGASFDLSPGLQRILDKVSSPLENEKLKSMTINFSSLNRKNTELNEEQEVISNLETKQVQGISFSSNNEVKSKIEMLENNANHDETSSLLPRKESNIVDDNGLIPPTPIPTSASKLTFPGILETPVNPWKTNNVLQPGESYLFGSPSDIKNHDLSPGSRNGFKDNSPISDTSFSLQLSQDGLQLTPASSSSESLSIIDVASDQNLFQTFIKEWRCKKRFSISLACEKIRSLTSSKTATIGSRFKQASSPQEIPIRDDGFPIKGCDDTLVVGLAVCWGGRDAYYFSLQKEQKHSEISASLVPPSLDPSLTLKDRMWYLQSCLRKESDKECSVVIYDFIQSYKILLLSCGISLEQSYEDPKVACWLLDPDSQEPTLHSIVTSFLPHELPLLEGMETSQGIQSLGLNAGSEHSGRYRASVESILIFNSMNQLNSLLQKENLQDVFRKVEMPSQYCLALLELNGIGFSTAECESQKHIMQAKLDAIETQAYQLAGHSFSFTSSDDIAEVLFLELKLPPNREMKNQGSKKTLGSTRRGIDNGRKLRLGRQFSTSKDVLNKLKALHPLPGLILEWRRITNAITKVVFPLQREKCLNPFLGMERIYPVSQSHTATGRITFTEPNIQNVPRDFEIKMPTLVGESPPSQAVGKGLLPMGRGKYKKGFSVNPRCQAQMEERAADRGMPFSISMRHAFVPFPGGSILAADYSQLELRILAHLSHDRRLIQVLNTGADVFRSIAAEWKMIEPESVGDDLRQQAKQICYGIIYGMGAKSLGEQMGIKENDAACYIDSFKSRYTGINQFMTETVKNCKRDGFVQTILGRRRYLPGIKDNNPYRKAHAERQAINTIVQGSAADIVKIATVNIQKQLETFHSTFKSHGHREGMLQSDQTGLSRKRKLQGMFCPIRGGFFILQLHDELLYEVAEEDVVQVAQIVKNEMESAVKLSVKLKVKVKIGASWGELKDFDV
# Observed: enzyme activity
# Mode: inhibitor
# Tested at: 77 µM
# Baseline: untreated
Structure (SMILES),remaining activity
O=C(N/N=C/c1ccc(O)c(O)c1)c1cc2ccccc2cc1O,95.7%
CCS(=O)(=O)N1CC(CC#N)(n2cc(-c3ncnc4[nH]ccc34)cn2)C1,101%
CC(C)c1ccc(NC(=O)Cn2cnc3c2c(=O)n(C)c(=O)n3C)cc1,81.1%
COC(=O)C1=C(C)NC(C)=C(C(=O)OC(C)(C)CN(C)CCC(c2ccccc2)c2ccccc2)C1c1cccc([N+](=O)[O-])c1 (stereo not drawn),90.4%
CCCCCCCN(CC)CCCC(O)c1ccc(NS(C)(=O)=O)cc1 (stereo not drawn),95.4%
Nc1[nH]nc2nc3ccccc3nc12,105%
COc1ccccc1N1CCN(CCCCNC(=O)c2ccc3ccccc3c2)CC1,99.5%
CCOC(=O)OC(C)OC(=O)[C@@H]1N2C(=O)[C@@H](NC(=O)[C@H](N)c3ccccc3)[C@H]2SC1(C)C (stereo partly drawn),111%
CCCN(CC1CC1)c1nc(C)nc(Nc2c(Cl)cc(Cl)cc2Cl)c1Cl,110%
Nc1ccc(S(=O)(=O)NC(=O)c2ccccc2)cc1,90.5%
CN1C(C(=O)Nc2ccccn2)=C(O)c2sc(Cl)cc2S1(=O)=O,86%
Nc1cc(Cl)c(N=C2NCCN2)c(Cl)c1,91.5%

# Study 4
# Host: mouse
# Matrix: microsomes or S9
# Tested at: 2 µM
# Time: 0.5 h
SMILES,remaining compound [%]
COc1cc(OC)cc(N(Cc2c(F)cccc2Cl)C(=O)Cc2ccncc2)c1,1.03
COC(=O)c1ccccc1C1CCN(C(=O)OC(C)(C)C)CC1,4.21
O=C(O)c1csc(CNC(=O)c2cc(N3CCNC3=O)ccc2Cl)n1,> 100
O=C(Nc1cc2ccc(O)cc2s1)Nc1ccc(Br)cc1F,36.2
CCN(CC)S(=O)(=O)c1ccc(S(=O)(=O)NCc2cccs2)cc1,7.74
O=c1[nH]c(O)ncc1S(=O)(=O)Nc1cccc2ccccc12,54.5
CCc1cc(N2CC[C@H](F)C2)n2nc(C)c(C)c2n1,26.1
O=C(c1ccc(OC(c2ccc(Cl)cc2)c2ccccc2Cl)c(F)c1)N1CC(O)C(O)C1 (stereo not drawn),66.8
COc1cc2nc(OC3CCN(C(=O)OC(C)(C)C)CC3)nc(Nc3ccc(S(C)(=O)=O)cc3F)c2cc1OC,0.356
CCOc1cc(C#N)ccc1OCc1nc(-c2cccs2)no1,66.8
Cc1nc2ncc(-c3cccc(N(C)C)c3)cc2[nH]1,80.1
C=CCC(C)(NCc1ccccc1)c1ccccc1 (stereo not drawn),0.474
[O-][S+](Cc1ccn(Cc2ccccc2Cl)n1)c1nc2cc(Cl)ccc2[nH]1 (stereo not drawn),8.24
C1=Cn2nc(/C=C/c3cccs3)nc2-c2ccccc2O1,2.67
Cc1cc(C)c(C2=C(NC(=O)C(C)C)C3(CCCC3)OC2=O)c(C)c1,0.006
CCN1CCN(CCNC(=O)c2ccc3c(c2)N(Cc2cccc(C)c2)C(=O)c2ccccc2S3(=O)=O)CC1,2.23

# Excerpt of the above (study 4):
SMILES,remaining compound [%]
CCN1CCN(CCNC(=O)c2ccc3c(c2)N(Cc2cccc(C)c2)C(=O)c2ccccc2S3(=O)=O)CC1,2.23
COc1cc(OC)cc(N(Cc2c(F)cccc2Cl)C(=O)Cc2ccncc2)c1,1.03
CCN(CC)S(=O)(=O)c1ccc(S(=O)(=O)NCc2cccs2)cc1,7.74
C1=Cn2nc(/C=C/c3cccs3)nc2-c2ccccc2O1,2.67
O=C(c1ccc(OC(c2ccc(Cl)cc2)c2ccccc2Cl)c(F)c1)N1CC(O)C(O)C1 (stereo not drawn),66.8
